Results of several laboratories.
Numbered parts are unrelated; each lists some results of a single study. Positions count from the first letter of the parent shown.

Sample 1
Target: XBP1, bZIP domain (human)
Technique: DHFR protein complementation
Medium: yeast
Notes: single substitutions, most at no-binding floor
Reference: wild-type JUN-FOS pair
Reading: higher = stronger binding
Starting sequence: JUN, bZIP domain (human); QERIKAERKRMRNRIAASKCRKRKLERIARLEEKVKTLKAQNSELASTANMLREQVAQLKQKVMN; partner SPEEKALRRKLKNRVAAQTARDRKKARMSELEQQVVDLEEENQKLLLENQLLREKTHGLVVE
The binding fitness of `T37A` is reported as -0.522 natural log.
`S43H` has a binding fitness of -0.601 natural log.
With `A46I` the binding fitness was -0.588 natural log.
With `L52G` the binding fitness was -1.5 natural log.
`I28H` has a binding fitness of -1.38 natural log.
With `L38E` the binding fitness was -1.42 natural log.
With `N42G` the binding fitness was -1.4 natural log.
For `A29M`, the binding fitness was -1.29 natural log.
`Q58R` gave a binding fitness of -0.719 natural log.
`L31W` gave a binding fitness of -1.34 natural log.
The binding fitness of `K34Y` is reported as -1.05 natural log.
`A57R` gave a binding fitness of -1.17 natural log.
`K34H` gave a binding fitness of -1.12 natural log.
For `M51T`, the binding fitness was -0.706 natural log.
With `A57C` the binding fitness was -1.22 natural log.
For `A57M`, the binding fitness was -1.13 natural log.

Sample 2
Target: Interferon regulatory factor 5, full length, phosphomimetic (IRF5, Homo sapiens, UniProt Q13568-2, residues 1-514, S451D/S453D/S456D/S462D)
Technique: protein-binding microarray
Form: double-stranded DNA, one strand shown
Medium: in vitro
Concentration: 940 nM top
Notes: 60-bp whole probe
Together with: salmon DNA 0.4 mg/ml
Reference: random background probes
Reading: higher = stronger binding
Constant ends, left off below: GCCTAGCAC … GTCTTGATTCGCTTGACGCTGCTG
`TTAGGACTGGACACTGCGTTAGTGCTA`: “fitted relative affinity” -0.441 z-score.
Under “fitted relative affinity”, `TTAGGTTCCAGTTTCGATTAGTGCTAG` is recorded as 8.34 z-score.
`GACGGACTGGACGCTGGGGACGTGCTA`: “fitted relative affinity” -0.69 z-score.
`GACGATATCGGTATCGGGACGTGCTAG`: “fitted relative affinity” 2.33 z-score.
For `GACGGACTGGACTAGCGGGACGTGCTA`, “fitted relative affinity” read -0.558 z-score.
`GACAACTGATATCAAAGGGAGTGCTAG` — result for “fitted relative affinity”: -0.246 z-score.
`TTAGGTTTCGACTTTCAGTTAGTGCTA` — result for “fitted relative affinity”: 8.82 z-score.
Under “fitted relative affinity”, `TTAGGTATCGACACTGGGTTGGTGCTA` is recorded as 4.99 z-score.
For `TTGGATCTCAGTCTCGATTAGTGCTAG`, “fitted relative affinity” read 2.97 z-score.
For `GACGGACTGGGGTATCGGGCCGTGCTA`, “fitted relative affinity” read 0.125 z-score.
`TTAGGACTGCTACTGCATTAGTGCTAG` — result for “fitted relative affinity”: -0.287 z-score.
Under “fitted relative affinity”, `TTAGATATCGGGCTTCGATTAGTGCTA` is recorded as -0.118 z-score.
For `GACGGTCTCGGTATCGGGGCGTGCTAG`, “fitted relative affinity” read 4.54 z-score.
For `GTAGGTATCGGTTTCGGTTAGTGCTAG`, “fitted relative affinity” read 12 z-score.
Under “fitted relative affinity”, `TCAATTCTCAGCCCTGCGACTGTGCTA` is recorded as 0.305 z-score.
For `GACGGTTTCCTTCTCCTGACGTGCTAG`, “fitted relative affinity” read 1.73 z-score.
`TCACCTTTCTGCCTCAGACTGTGCTAG`: “fitted relative affinity” 1.1 z-score.
Under “fitted relative affinity”, `TCATTTTTTTTTTTGTAACTGTGCTAG` is recorded as 1.5 z-score.

Sample 3
Target: Phosphate system positive regulatory protein PHO4, full length, GST-tagged (PHO4, Saccharomyces cerevisiae, UniProt P07270, residues 1-312)
Technique: competition protein-binding microarray
Form: double-stranded DNA, one strand shown
Medium: in vitro
Concentration: 2 µM
Notes: whole 60-bp probe, lowest competitor level
Together with: Cbf1 competitor, 0.05 µM
Reading: higher = stronger binding
Constant ends, left off below: … GTCTTGATTCGCTTGACGCTGCTG
Construct (chain): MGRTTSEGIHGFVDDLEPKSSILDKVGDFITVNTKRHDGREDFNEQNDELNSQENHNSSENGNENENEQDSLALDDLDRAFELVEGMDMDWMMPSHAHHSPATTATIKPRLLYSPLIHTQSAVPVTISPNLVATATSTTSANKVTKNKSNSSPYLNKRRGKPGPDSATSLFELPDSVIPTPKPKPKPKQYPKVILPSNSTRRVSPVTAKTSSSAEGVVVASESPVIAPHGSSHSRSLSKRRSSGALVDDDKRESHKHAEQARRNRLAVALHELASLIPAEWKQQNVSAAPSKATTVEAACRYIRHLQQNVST
The fluorescence intensity of `CATACCCAACCTTGTCACCTAACTTAAGATATTTGT` is reported as 3640 a.u.
With `CGTCCTAGTGATTGTCACAATACTTCCATGAGGAAG` the fluorescence intensity was 4690 a.u.
`AGAAATGTCCCGGAAAACGTGGGTATGCGGTGAGGA` gave a fluorescence intensity of 15000 a.u.
`CCACATAAACATTCACACGTGGAACATGTACCAAAA` gave a fluorescence intensity of 17400 a.u.
`CATACCCAACCTTGTCACGTGACTTAAGATATTTGT` gave a fluorescence intensity of 13700 a.u.
With `CTTTCCCGATCTTGTCACACAACTTTAGCACATTTG` the fluorescence intensity was 4530 a.u.
The fluorescence intensity of `TGCGCAACAACTTGATATGTGGGTGTATGTCTAGAA` is reported as 4580 a.u.
With `CAGATGGACACTTGTTACGTGTGGATCAGACTATTG` the fluorescence intensity was 5020 a.u.
`CTTCTGTAAATTTGTCACCGGACTTGACGCGCCCCG` has a fluorescence intensity of 3430 a.u.
`TGGAACATCGCGAACATCGTGCCGACGCTGATAGTC` has a fluorescence intensity of 8840 a.u.
`CCCACCGTAAGGAAACACGTGGTGATGGTGGTATAT` has a fluorescence intensity of 18900 a.u.
For `AATTCATAATCTTTGCACGTGACTCGCATTTGATAC`, the fluorescence intensity was 15200 a.u.
For `GTCTTGTCTCATTTTCACGTGCCCTTCCCCACTTCA`, the fluorescence intensity was 15800 a.u.
The fluorescence intensity of `CGGGGTTAAGTTTGCATTGTGGGTGGCTTGCAGCAG` is reported as 6190 a.u.
`ATATCCACAGTATATGGCGTGCAAAGATAAGGCTCG` gave a fluorescence intensity of 6430 a.u.
`CAGGACTCCATCCATTACATGACAAGGGAAGCGCCC` gave a fluorescence intensity of 3360 a.u.
For `AGAGGAGATCCCTGGCACGCTCACTGCGCCTTTCAA`, the fluorescence intensity was 7510 a.u.
`CATCATGCAGGTCCACACGTGATGGGAAGGGCAACG` has a fluorescence intensity of 16800 a.u.

Sample 4
Target: ABI1, truncated, D143A, DHFR fusion (Arabidopsis thaliana)
Technique: DHFR PCA, deep sequencing
Medium: yeast
Notes: methotrexate growth selection, single substitutions
Together with: (+)-ABA 710 µM
Reference: wild-type fitted maximum
Reading: higher = stronger binding
Starting sequence: PYL1, truncated, DHFR fusion (Arabidopsis thaliana); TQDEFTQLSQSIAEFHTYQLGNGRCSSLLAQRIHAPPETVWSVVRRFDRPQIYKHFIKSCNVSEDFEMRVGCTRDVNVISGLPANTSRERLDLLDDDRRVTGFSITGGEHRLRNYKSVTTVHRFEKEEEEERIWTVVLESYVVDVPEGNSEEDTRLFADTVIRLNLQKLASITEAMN
For `I79M`, “relative binding score” read 99.6%.
`E125H` — result for “relative binding score”: 109%.
Under “relative binding score”, `V62T` is recorded as 111%.
`D97L` — result for “relative binding score”: 106%.
`S171F` — result for “relative binding score”: 93%.
Under “relative binding score”, `A170P` is recorded as 0.545%.
`E67A`: “relative binding score” 103%.
`V118S` — result for “relative binding score”: 77%.
For `N22Q`, “relative binding score” read 104%.
`V100G`: “relative binding score” 52.8%.
Under “relative binding score”, `H110V` is recorded as 30%.
`N165D`: “relative binding score” 58.4%.
For `D75I`, “relative binding score” read 105%.
`L93S`: “relative binding score” 90.5%.
For `E4D`, “relative binding score” read 102%.
For `L112C`, “relative binding score” read 89.8%.
For `N77Q`, “relative binding score” read 101%.
Under “relative binding score”, `E131S` is recorded as 110%.
`N22G`: “relative binding score” 101%.
`G23T` — result for “relative binding score”: 97%.
`I57S`: “relative binding score” 40.4%.
`N77W` — result for “relative binding score”: 98.4%.
For `F5G`, “relative binding score” read 102%.

Sample 5
Target: Ras GTPase-activating protein-binding protein 1, RRM domain (G3BP1, Homo sapiens, UniProt Q13283)
Sequence of UniProt Q13283 (whole entry, looked up): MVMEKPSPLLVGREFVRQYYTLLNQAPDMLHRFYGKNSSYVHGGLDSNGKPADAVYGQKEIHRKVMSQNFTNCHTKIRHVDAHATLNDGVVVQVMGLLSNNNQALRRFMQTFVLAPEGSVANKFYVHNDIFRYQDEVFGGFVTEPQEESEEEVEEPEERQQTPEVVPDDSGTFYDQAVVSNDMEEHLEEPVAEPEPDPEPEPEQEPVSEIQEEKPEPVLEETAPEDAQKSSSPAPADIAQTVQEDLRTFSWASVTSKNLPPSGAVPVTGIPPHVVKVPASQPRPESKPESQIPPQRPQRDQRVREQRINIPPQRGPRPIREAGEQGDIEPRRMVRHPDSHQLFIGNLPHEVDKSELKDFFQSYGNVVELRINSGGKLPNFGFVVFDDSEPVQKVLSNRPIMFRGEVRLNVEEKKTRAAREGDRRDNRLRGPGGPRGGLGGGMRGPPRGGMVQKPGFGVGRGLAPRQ
Technique: RNA Bind-n-Seq
Form: RNA
Medium: in vitro
Concentration: 1 µM
Notes: whole 134-nt RNA, ends assumed
Together with: 150 mM KCl
Reference: input library
Reading: higher = stronger binding
Constant ends, left off below: GGGAGUUCUACAGUCCGACGAUC … UGGAAUUCUCGGGUGUCAAGG
`UGGGAGGUGGAUUUUGUUUAUUUUAUUAGCUCAUUUCCAGGGGUGGGAAUUUUUUUUUAAUAUGUGUCAUGAAUAAAGUUGUUUUUGAAA` gave a log2 enrichment of 1.81.
`AGUCCUGUGCUACACAUCGUAUGUACCGAAUCGGAAAAAGGAAAAAGGAAAAAGGGGAAAGUAUUAUGUUACGCCGUUCGGAUCUGCACU` has a log2 enrichment of -0.0128.
With `AGUCCUGUGCUACACAUCGUAUGUACCGAAUCGGGGUGGGGUUUUUUUGGGGAGGGGAAAGUAUUAUGUUACGCCGUUCGGAUCUGCACU` the log2 enrichment was 0.856.
For `UCAAGUCCUGUGCUACACAUCGUAUGUACCGAAUCGGUUUUUGGAAAGGAAAGGAAAGUAUUAUGUUACGCCGUUCGGAUCUGCACUUCC`, the log2 enrichment was -0.134.
`UCAAGUCCUGUGCUACACAUCGUAUGUACCGAAUCGGGGCCCGGCCCGGCCCGGGAAAGUAUUAUGUUACGCCGUUCGGAUCUGCACUUC` gave a log2 enrichment of -0.998.
With `UGGCCCUGGUGGCAUGCGGGGAGGAAGAGGUGGCCUCAUGGAUCGUGGUGGUCCCGGUGGAAUGUUCACAGGUGGCCGUGGUGGAGACAG` the log2 enrichment was 1.89.
The log2 enrichment of `GUCCUGUGCUACACAUCGUAUGUACCGAAUCGGGUUUUUGGGGUUUUUGGUUUUUGGGAAAGUAUUAUGUUACGCCGUUCGGAUCUGCAC` is reported as -0.194.
The log2 enrichment of `GUCCUGUGCUACACAUCGUAUGUACCGAAUCGGGGUUUUUGGGGUUUGGGGAAAGGGGAAAGUAUUAUGUUACGCCGUUCGGAUCUGCAC` is reported as 1.85.
With `UUCCGCCUCUUUCCGGAGUACAAGAACAACAAACUUUUCCUGACCGGGGAGAGCUAUGCUGGCAUCUACAUCCCCACCCUGGCCGUGCUG` the log2 enrichment was 0.2.
`UGGCCCUGGUGGCAUGCGGGGAGGAAGAGGUGGCCUCAUGGAACGUGGUGGUCCCGGUGGAAUGUUCAGAGGUGGCCGUGGUGGAGACAG` has a log2 enrichment of 1.09.
For `ACCAUGCAGGUGGGCAUCUUUGGGAAGUGGGGCAAGGGGGGGAUAGGGAGGGGGGUAACACUUUGGGAACAGGUGCUCCCAGGUCGUUUC`, the log2 enrichment was 0.657.
For `UGCAUGUGCACUGAUAGGCCAAGGCCAGCUGAACCAGGCCAUGAAAAUCCUACAAAAAGCUGAAGGUUGGAAGUUUGUUAAACUUAUCUG`, the log2 enrichment was -0.248.
For `UCAAGUCCUGUGCUACACAUCGUAUGUACCGAAUCGGCCCGGGCCCGGGCCCGGGAAAGUAUUAUGUUACGCCGUUCGGAUCUGCACUUC`, the log2 enrichment was -0.265.
The log2 enrichment of `CCUCAAGUCCUGUGCUACACAUCGUAUGUACCGAAUCGGUUUGGAAAGGUGGAAAGUAUUAUGUUACGCCGUUCGGAUCUGCACUUCCAG` is reported as -0.209.
